Results from different studies.
Each line is one published result; not all experiments were run side by side. ± marks the error that the study gave.

SMILES | cell line | assay | system | conditions | scale | endpoint | value
CC(C)NCC(O)c1ccc(O)c(O)c1 (stereo not drawn) | mouse ventricular cardiomyocytes |  |  | dose not given, 0.059 s |  | sarcomere length | 1.8 µm
CC/C(=N\NC(=O)NCc1cccc(O)c1)c1ccc(O)c(C)c1O | SK-OV-3 | Western blot | 3D culture in gellan gum | 20 µM, 1 h, unit not given | baseline: β-actin | TAZ protein level | 0.82 ± 0.27
CCn1cc(-c2cc(Cn3ccoc3=N)cc3c2CCN([C@@H](C)c2cc(OC)ccn2)C3=O)c(C(F)(F)F)n1 | C3A | cell growth, inhibitor |  | 120 h |  | EC50 | > 30000 nM
O=C(/C=C/C=C/C=C/C1CCCCC1)NC1=C[C@@](O)(/C=C/C=C/C=C/C(=O)NC2=C(O)CCC2=O)[C@@H]2O[C@@H]2C1=O | SK-CO-1 | cell growth, CellTiter-Glo |  | 78 h |  | GI50 | 13400 nM
CC1(C)CCC(CN2CCN(c3ccc(C(=O)NS(=O)(=O)c4ccc(NCC5CCOCC5)c([N+](=O)[O-])c4)c(Oc4cnc5[nH]ccc5c4)c3)CC2)=C(c2ccc(Cl)cc2)C1 | THP-1 | annexin V/PI flow cytometry, item: annexin V+/PI+ |  | 0.4 µM, 24 h |  | late apoptotic cells | 2.5%
CCn1cc(-c2cc(Cn3ccnc3)cc3c2CCN([C@H](c2cc(OC)ccn2)C2CC2)C3=O)c(C(F)(F)F)n1 | C3A | cell growth, inhibitor |  | 120 h |  | EC50 | 2750 nM
CCCCc1nc(Cl)c(CO)n1Cc1ccc(-c2ccccc2-c2nn[nH]n2)cc1 | human PBMC | RNA-seq, item: CCM2L mRNA |  | 10 µg/mL, 24 h | baseline: untreated control | log2 fold change | 2.83
Cn1cc(-c2ccc(-c3cncc(Cl)c3N3CCC4(CCNC4=O)CC3)cc2)cn1 | COLO 205 | gene expression, microarray, item: FSCN1 mRNA |  | concentration not given, 6 h | baseline: untreated cells | log2 fold change | 2.2
COc1cnc2cccc(N3CCc4c(cc(Cn5ccnc5C)cc4-c4cn(C)nc4C(F)(F)F)C3=O)c2c1 | JHH6 | cell growth |  | 120 h |  | EC50 | 1040 nM
